Published values from different studies.
Lines come from different studies, so protocols differ. Values joined by “and” are separate records of one study, mostly repeats; a detail may differ. Numbers after ± are the reported error.
U2AF2: U2AF2 148-342 (Homo sapiens, UniProt P26368)
UniProt P26368, sequence (whole entry, looked up): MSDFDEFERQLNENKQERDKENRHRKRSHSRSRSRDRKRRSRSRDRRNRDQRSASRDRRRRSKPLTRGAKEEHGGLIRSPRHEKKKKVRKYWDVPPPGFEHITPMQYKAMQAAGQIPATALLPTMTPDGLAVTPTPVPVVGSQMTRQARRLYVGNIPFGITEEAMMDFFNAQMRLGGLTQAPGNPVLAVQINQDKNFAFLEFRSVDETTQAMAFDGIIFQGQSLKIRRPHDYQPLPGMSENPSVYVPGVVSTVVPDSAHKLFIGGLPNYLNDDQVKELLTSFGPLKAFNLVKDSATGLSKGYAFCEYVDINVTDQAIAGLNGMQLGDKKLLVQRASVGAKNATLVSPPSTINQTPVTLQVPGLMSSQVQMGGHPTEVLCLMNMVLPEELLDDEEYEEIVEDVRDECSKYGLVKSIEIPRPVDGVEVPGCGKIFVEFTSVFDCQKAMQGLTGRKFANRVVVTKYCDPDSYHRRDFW
B1: human RAB5C; sequence looked up; chain MAGRGGAARPNGPAAGNKICQFKLVLLGESAVGKSSLVLRFVKGQFHEYQESTIGAAFLTQTVCLDDTTVKFEIWDTAGQERYHSLAPMYYRGAQAAIVVYDITNTDTFARAKNWVKELQRQASPNIVIALAGNKADLASKRAVEFQEAQAYADDNSLLFMETSAKTAMNVNEIFMAIAKKLPKNEPQNATGAPGRNRGVDLQENNPASRSQCCSN
B2: adiponectin; sequence looked up; chain ETTTQGPGVLLPLPKGACTGWMAGIPGHPGHNGAPGRDGRDGTPGEKGEKGDPGLIGPKGDIGETGVPGAEGPRGFPGIQGRKGEPGEGAYVYRSAFSVGLETYVTIPNMPIRFTKIFYNQQNHYDGSTGKFHCNIPGLYYFAYHITVYMKDVKVSLFKKDKAMLFTYDQYQENNVDQASGSVLLHLEVGDQVWLQVYGEGERNGLYADNDNDSTFTGFLLYHDTN
B3: human ADAR1; sequence looked up; chain MNPRQGYSLSGYYTHPFQGYEHRQLRYQQPGPGSSPSSFLLKQIEFLKGQLPEAPVIGKQTPSLPPSLPGLRPRFPVLLASSTRGRQVDIRGVPRGVHLRSQGLQRGFQHPSPRGRSLPQRGVDCLSSHFQELSIYQDQEQRILKFLEELGEGKATTAHDLSGKLGTPKKEINRVLYSLAKKGKLQKEAGTPPLWKIAVSTQAWNQHSGVVRPDGHSQGAPNSDPSLEPEDRNSTSVSEDLLEPFIAVSAQAWNQHSGVVRPDSHSQGSPNSDPGLEPEDSNSTSALEDPLEFLDMAEIKEKICDYLFNVSDSSALNLAKNIGLTKARDINAVLIDMERQGDVYRQGTTPPIWHLTDKKRERMQIKRNTNSVPETAPAAIPETKRNAEFLTCNIPTSNASNNMVTTEKVENGQEPVIKLENRQEARPEPARLKPPVHYNGPSKAGYVDFENGQWATDDIPDDLNSIRAAPGEFRAIMEMPSFYSHGLPRCSPYKKLTECQLKNPISGLLEYAQFASQTCEFNMIEQSGPPHEPRFKFQVVINGREFPPAEAGSKKVAKQDAAMKAMTILLEEAKAKDSGKSEESSHYSTEKESEKTAESQTPTPSATSFFSGKSPVTTLLECMHKLGNSCEFRLLSKEGPAHEPKFQYCVAVGAQTFPSVSAPSKKVAKQMAAEEAMKALHGEATNSMASDNQPEGMISESLDNLESMMPNKVRKIGELVRYLNTNPVGGLLEYARSHGFAAEFKLVDQSGPPHEPKFVYQAKVGGRWFPAVCAHSKKQGKQEAADAALRVLIGENEKAERMGFTEVTPVTGASLRRTMLLLSRSPEAQPKTLPLTGSTFHDQIAMLSHRCFNTLTNSFQPSLLGRKILAAIIMKKDSEDMGVVVSLGTGNRCVKGDSLSLKGETVNDCHAEIISRRGFIRFLYSELMKYNSQTAKDSIFEPAKGGEKLQIKKTVSFHLYISTAPCGDGALFDKSCSDRAMESTESRHYPVFENPKQGKLRTKVENGEGTIPVESSDIVPTWDGIRLGERLRTMSCSDKILRWNVLGLQGALLTHFLQPIYLKSVTLGYLFSQGHLTRAICCRVTRDGSAFEDGLRHPFIVNHPKVGRVSIYDSKRQSGKTKETSVNWCLADGYDLEILDGTRGTVDGPRNELSRVSKKNIFLLFKKLCSFRYRRDLLRLSYGEAKKAARDYETAKNYFKKGLKDMGYGNWISKPQEEKNFYLCPV
B4: human RBM10; sequence looked up; chain MEYERRGGRGDRTGRYGATDRSQDDGGENRSRDHDYRDMDYRSYPREYGSQEGKHDYDDSSEEQSAEDSYEASPGSETQRRRRRRHRHSPTGPPGFPRDGDYRDQDYRTEQGEEEEEEEDEEEEEKASNIVMLRMLPQAATEDDIRGQLQSHGVQAREVRLMRNKSSGQSRGFAFVEFSHLQDATRWMEANQHSLNILGQKVSMHYSDPKPKINEDWLCNKCGVQNFKRREKCFKCGVPKSEAEQKLPLGTRLDQQTLPLGGRELSQGLLPLPQPYQAQGVLASQALSQGSEPSSENANDTIILRNLNPHSTMDSILGALAPYAVLSSSNVRVIKDKQTQLNRGFAFIQLSTIVEAAQLLQILQALHPPLTIDGKTINVEFAKGSKRDMASNEGSRISAASVASTAIAAAQWAISQASQGGEGTWATSEEPPVDYSYYQQDEGYGNSQGTESSLYAHGYLKGTKGPGITGTKGDPTGAGPEASLEPGADSVSMQAFSRAQPGAAPGIYQQSAEASSSQGTAANSQSYTIMSPAVLKSELQSPTHPSSALPPATSPTAQESYSQYPVPDVSTYQYDETSGYYYDPQTGLYYDPNSQYYYNAQSQQYLYWDGERRTYVPALEQSADGHKETGAPSKEGKEKKEKHKTKTAQQIAKDMERWARSLNKQKENFKNSFQPISSLRDDERRESATADAGYAILEKKGALAERQHTSMDLPKLASDDRPSPPRGLVAAYSGESDSEEEQERGGPEREEKLTDWQKLACLLCRRQFPSKEALIRHQQLSGLHKQNLEIHRRAHLSENELEALEKNDMEQMKYRDRAAERREKYGIPEPPEPKRRKYGGISTASVDFEQPTRDGLGSDNIGSRMLQAMGWKEGSGLGRKKQGIVTPIEAQTRVRGSGLGARGSSYGVTSTESYKETLHKTMVTRFNEAQ
B5: human AP2A2; sequence looked up; chain MPAVSKGDGMRGLAVFISDIRNCKSKEAEIKRINKELANIRSKFKGDKALDGYSKKKYVCKLLFIFLLGHDIDFGHMEAVNLLSSNRYTEKQIGYLFISVLVNSNSELIRLINNAIKNDLASRNPTFMGLALHCIASVGSREMAEAFAGEIPKVLVAGDTMDSVKQSAALCLLRLYRTSPDLVPMGDWTSRVVHLLNDQHLGVVTAATSLITTLAQKNPEEFKTSVSLAVSRLSRIVTSASTDLQDYTYYFVPAPWLSVKLLRLLQCYPPPDPAVRGRLTECLETILNKAQEPPKSKKVQHSNAKNAVLFEAISLIIHHDSEPNLLVRACNQLGQFLQHRETNLRYLALESMCTLASSEFSHEAVKTHIETVINALKTERDVSVRQRAVDLLYAMCDRSNAPQIVAEMLSYLETADYSIREEIVLKVAILAEKYAVDYTWYVDTILNLIRIAGDYVSEEVWYRVIQIVINRDDVQGYAAKTVFEALQAPACHENLVKVGGYILGEFGNLIAGDPRSSPLIQFHLLHSKFHLCSVPTRALLLSTYIKFVNLFPEVKPTIQDVLRSDSQLRNADVELQQRAVEYLRLSTVASTDILATVLEEMPPFPERESSILAKLKKKKGPSTVTDLEDTKRDRSVDVNGGPEPAPASTSAVSTPSPSADLLGLGAAPPAPAGPPPSSGGSGLLVDVFSDSASVVAPLAPGSEDNFARFVCKNNGVLFENQLLQIGLKSEFRQNLGRMFIFYGNKTSTQFLNFTPTLICSDDLQPNLNLQTKPVDPTVEGGAQVQQVVNIECVSDFTEAPVLNIQFRYGGTFQNVSVQLPITLNKFFQPTEMASQDFFQRWKQLSNPQQEVQNIFKAKHPMDTEVTKAKIIGFGSALLEEVDPNPANFVGAGIIHTKTTQIGCLLRLEPNLQAQMYRLTLRTSKEAVSQRLCELLSAQF
UniProt Q00535, sequence (whole entry, looked up): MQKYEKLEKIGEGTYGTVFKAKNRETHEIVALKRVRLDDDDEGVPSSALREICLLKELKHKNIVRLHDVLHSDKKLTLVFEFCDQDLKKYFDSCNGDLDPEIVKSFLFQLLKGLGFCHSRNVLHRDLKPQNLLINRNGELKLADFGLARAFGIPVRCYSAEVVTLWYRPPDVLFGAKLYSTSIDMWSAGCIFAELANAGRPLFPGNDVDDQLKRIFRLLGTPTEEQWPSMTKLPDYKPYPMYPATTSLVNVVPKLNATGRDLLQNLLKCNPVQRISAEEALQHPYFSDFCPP
UniProt P13393, sequence (whole entry, looked up): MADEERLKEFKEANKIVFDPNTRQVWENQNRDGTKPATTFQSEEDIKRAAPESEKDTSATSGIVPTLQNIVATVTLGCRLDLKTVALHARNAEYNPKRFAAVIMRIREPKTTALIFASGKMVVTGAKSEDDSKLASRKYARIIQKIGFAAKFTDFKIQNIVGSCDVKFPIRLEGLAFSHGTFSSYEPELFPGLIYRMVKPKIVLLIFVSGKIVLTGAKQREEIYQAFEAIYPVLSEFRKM

CAGUUCUUC (ssRNA)
Kd (U2AF2; sequencing of bound RNA; RNA; motif only): 7600 nM

Peginesatide
phosphorylation level (UT7/EPO; tyrosine phosphorylation, LC-MS/MS phosphoproteomics, GluC, item: FRS2 tyrosine 195; 10 nM, 15 min, together with: 10 U/mL EPO; relative to: vehicle): 4.3 fold

B1 (human RAB5C)
log2 fold change (CYB5R4 knockout human cells; PP6 interaction, 3xFLAG-PP6C IP-MS; concentration not given; relative to: CYB5R4 KO over parental): 0.68

B2 (adiponectin)
mRNA level (HUVEC; real-time PCR, item: E-selectin; 15 µg/mL, 24 h, unit not given, together with: TNF-α and IFN-γ; relative to: stimulated untreated): 0.69 ± 0.01

HIDPIGYNY
GFP-positive cells (Jurkat expressing engineered TCR; NFAT-eGFP reporter, fluorescence microscopy; peptide; concentration not given, HLA-A*01:01 on EL4 cells): 0.89%

MTVCNASQRQAHAQATAVSL
selectivity ratio (H661; phage binding; peptide; relative to: targeting over control phage): 2.2 ± 0.5

B3 (human ADAR1)
log2 fold change (CYB5R4 knockout human cells; PP4 interaction, 3xFLAG-PP4C IP-MS; concentration not given; relative to: CYB5R4 KO over parental): -1.41

LSDIIPLDY
GFP-positive cells (Jurkat expressing engineered TCR; NFAT-eGFP reporter, fluorescence microscopy; peptide; concentration not given, HLA-A*01:01 on EL4 cells): 0.45%

epoetin alfa
mRNA level (UT7/EPO; RT-qPCR, item: MYC; concentration not given, 90 min, normalized to HPRT1; relative to: vehicle): 2.8 fold

EPDPLGHEF
GFP-positive cells (Jurkat expressing engineered TCR; NFAT-eGFP reporter, fluorescence microscopy; peptide; concentration not given, HLA-A*01:01 on EL4 cells): 0.415%

B4 (human RBM10)
log2 fold change (CYB5R4 knockout human cells; PP4 interaction, 3xFLAG-PP4C IP-MS; concentration not given; relative to: CYB5R4 KO over parental): 0.38

EPDPIGYEF
GFP-positive cells (Jurkat expressing engineered TCR; NFAT-eGFP reporter, fluorescence microscopy; peptide; concentration not given, HLA-A*01:01 on EL4 cells): 0.467%

KEAFWDRCLSVINLMSSKCLQINA
activity change (Cyclin-dependent kinase 5, with p25 (CDK5, Homo sapiens, UniProt Q00535); phosphotransferase activity, radiometric; peptide; concentration not given, 10% DMSO, together with: histone substrate; relative to: p5-WT peptide): 24%

B5 (human AP2A2)
log2 fold change (CYB5R4 knockout human cells; PP4 interaction, 3xFLAG-PP4C IP-MS; concentration not given; relative to: CYB5R4 KO over parental): -0.42

GUUUACCAC (ssRNA)
Kd (U2AF2; sequencing of bound RNA; RNA; motif only): 850 nM

Pam2CSK4
mRNA level (BV-2; RT-qPCR, item: Marco; concentration not given, unit not given; relative to: untreated): 4.36 and 5.59 and 5.18

DNA 1 AAATCTTTTCTTTTTTCCATTCATTCATTAAATTTTCAATTCAATCGGTCC / DNA 2 GGACCGATTGACTTGAAAATTTAATGAATGAATGGAAAAAAGAAAAGATTT (dsDNA; 5'-amino-C6 primer)
Kd (SPT15 full length assumed (Saccharomyces cerevisiae, UniProt P13393); array; double-stranded DNA; TBP alone): 14.8 ± 0.72 nM
